Published values of several laboratories.
Numbered parts are unrelated; each lists some results of a single study.

Series 1 — technique: protein-binding microarray; form: double-stranded DNA, one strand shown; sample: in vitro; tested at: 2540 nM top; setting: 60-bp whole probe; added: salmon DNA 0.4 mg/ml; relative to: random background probes; reading: higher = stronger binding; measurement: fitted relative affinity; constant ends, left off below: GCCTAGCAC … GTCTTGATTCGCTTGACGCTGCTG
Target: Interferon regulatory factor 3, full length, phosphomimetic (IRF3, Homo sapiens, UniProt Q14653, residues 1-427, S386D/S396D/S398D/S402D/T404D/S405D)
Construct (chain): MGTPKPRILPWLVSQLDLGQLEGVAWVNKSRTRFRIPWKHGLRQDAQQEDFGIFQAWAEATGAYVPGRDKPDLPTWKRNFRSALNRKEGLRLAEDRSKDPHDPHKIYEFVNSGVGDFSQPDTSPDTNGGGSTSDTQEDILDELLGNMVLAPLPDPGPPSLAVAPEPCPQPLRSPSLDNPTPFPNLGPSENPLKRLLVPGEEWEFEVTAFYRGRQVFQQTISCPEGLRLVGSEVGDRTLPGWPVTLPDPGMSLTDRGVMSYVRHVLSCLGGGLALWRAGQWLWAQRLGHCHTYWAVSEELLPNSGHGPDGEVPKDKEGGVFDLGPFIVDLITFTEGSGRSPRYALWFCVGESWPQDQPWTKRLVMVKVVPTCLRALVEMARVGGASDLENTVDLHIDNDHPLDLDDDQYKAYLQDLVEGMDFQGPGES
TTAGAACTGGGGACTGAATTAGTGCTA: -0.647 z-score
TTAGGTTCCCTGTTCCTTTAGTGCTAG: 2.49 z-score
TTAGGCCTCCTTATCCTTTAGTGCTAG: 0.41 z-score
TCCTGCTGTACCCCTAGGGCGTGCTAG: 0.0691 z-score
TTAGGTCTCGATTTCGGTTAGTGCTAG: 2.55 z-score
GGACTCACCTAGTTTCATTCCGTGCTA: 1.6 z-score
TTAGGTTTCGGTCCCGGTTAGTGCTAG: 6.09 z-score
GACGGTCTCGGTTACGGGACGTGCTAG: 1.16 z-score
CCTCTTTTTTGTTCCACGCCGTGCTAG: 1.81 z-score
GACGGACCGCTTATCCTGACGTGCTAG: 0.0439 z-score
TTAGGTATCGGTCTGGGTTAGTGCTAG: 2.32 z-score
TATAGTTATTTTTATTAAAAGTGCTAG: 0.652 z-score
TTAGGACTCGGGTTTCGGTTAGTGCTA: 2.33 z-score
CTCCTCTCTGGGTCAAAGGTGTGCTAG: 0.566 z-score
TCAATTATGAGTCTTGAACTGTGCTAG: -0.11 z-score
TTAGGACTGGGGTATCGGTTAGTGCTA: 0.0185 z-score

Series 2 — technique: RNA Bind-n-Seq; form: RNA; sample: in vitro; tested at: not given; relative to: input RNA pool; reading: higher = stronger binding; measurement: bound/input enrichment
Target: RING finger protein unkempt homolog, zinc fingers 1-6, GST-SBP tag (UNK, Homo sapiens, UniProt Q9C0B0, residues 30-357)
UniProt Q9C0B0, sequence (30-357, looked up): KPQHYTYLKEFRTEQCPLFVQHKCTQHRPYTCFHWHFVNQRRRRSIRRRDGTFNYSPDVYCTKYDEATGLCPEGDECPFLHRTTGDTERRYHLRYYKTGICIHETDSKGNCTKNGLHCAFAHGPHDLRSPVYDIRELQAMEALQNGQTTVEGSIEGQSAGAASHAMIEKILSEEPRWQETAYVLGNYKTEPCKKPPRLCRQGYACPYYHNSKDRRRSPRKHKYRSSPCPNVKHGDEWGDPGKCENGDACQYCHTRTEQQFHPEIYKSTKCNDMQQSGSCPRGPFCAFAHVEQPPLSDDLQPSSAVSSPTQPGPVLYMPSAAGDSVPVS
Setting: RNA with constant flanks, human-mouse chimeric sites, ends assumed
Constant ends, left off below: GGGAGUUCUACAGUCCGACGAUC … CAACAGAGGAUUGAGCAUCA
AACUUCGUGCAUCGGUUUCCCUUUGUAGCUGUUUCAAUUGGCUUCCUUGUGAAUAAAGAGAUGGAGUUUGGAAUUGUGUACAGCUGUGUGGAAGGCAAGAUGUACACUGCCAGAAAAGGG: 0.303 ratio
GAUCCACAGUGGUCUGAGGAGCAACUCAUUGCUGCAAAAUUCUGUUUUGCUGGCCUUGUUAUAGGGCAGACUGAAGUGGAUAUCAUGAGUCAUGCCACACAGGCUAUUUUUGAAAUUCUG: 0.157 ratio
CUUUUUAAGAAGAUAUGUGAUGGGAUCUUCUAUACCCCUCAGUACUUAAAUCCUUCUGUAAUCAGCCUUUUGAAACAUAUGCUGCAGGUGGAUCCCAUGAAGAGGGCCGCAAUAAAAGAU: 0.194 ratio
GAAUCCUACUCAGGCGGAUUUUGCAACACCAAGCUCACAGCAGCAGCUCCAUAGUCACAGUAGGGUAGUUUUGGGGCUCUGUGGCCAGGGUUUUAUUCACAUGCAGGUUUGGAAAAUGUA: 0.7 ratio
CGCUGGCCCAAGCUGAUGUAAAUGUUUGGCCUCCAUCUCUCAGGCACGUUUGCCUUCUCUUAGUCCCUGUUUUCGGGAUGUUAUGAAUCUCAGUACUGUGGUUUGAAAGCACCAGCUUUG: 0.124 ratio

Series 3 — technique: universal PBM; form: double-stranded DNA, one strand shown; sample: in vitro; tested at: 600 nM; reading: higher = stronger binding; measurement: E-score
Target: Sal-like protein 4, full length isoform A (SALL4, Homo sapiens, UniProt Q9UJQ4, residues 1-1053)
UniProt Q9UJQ4, sequence (whole entry, looked up): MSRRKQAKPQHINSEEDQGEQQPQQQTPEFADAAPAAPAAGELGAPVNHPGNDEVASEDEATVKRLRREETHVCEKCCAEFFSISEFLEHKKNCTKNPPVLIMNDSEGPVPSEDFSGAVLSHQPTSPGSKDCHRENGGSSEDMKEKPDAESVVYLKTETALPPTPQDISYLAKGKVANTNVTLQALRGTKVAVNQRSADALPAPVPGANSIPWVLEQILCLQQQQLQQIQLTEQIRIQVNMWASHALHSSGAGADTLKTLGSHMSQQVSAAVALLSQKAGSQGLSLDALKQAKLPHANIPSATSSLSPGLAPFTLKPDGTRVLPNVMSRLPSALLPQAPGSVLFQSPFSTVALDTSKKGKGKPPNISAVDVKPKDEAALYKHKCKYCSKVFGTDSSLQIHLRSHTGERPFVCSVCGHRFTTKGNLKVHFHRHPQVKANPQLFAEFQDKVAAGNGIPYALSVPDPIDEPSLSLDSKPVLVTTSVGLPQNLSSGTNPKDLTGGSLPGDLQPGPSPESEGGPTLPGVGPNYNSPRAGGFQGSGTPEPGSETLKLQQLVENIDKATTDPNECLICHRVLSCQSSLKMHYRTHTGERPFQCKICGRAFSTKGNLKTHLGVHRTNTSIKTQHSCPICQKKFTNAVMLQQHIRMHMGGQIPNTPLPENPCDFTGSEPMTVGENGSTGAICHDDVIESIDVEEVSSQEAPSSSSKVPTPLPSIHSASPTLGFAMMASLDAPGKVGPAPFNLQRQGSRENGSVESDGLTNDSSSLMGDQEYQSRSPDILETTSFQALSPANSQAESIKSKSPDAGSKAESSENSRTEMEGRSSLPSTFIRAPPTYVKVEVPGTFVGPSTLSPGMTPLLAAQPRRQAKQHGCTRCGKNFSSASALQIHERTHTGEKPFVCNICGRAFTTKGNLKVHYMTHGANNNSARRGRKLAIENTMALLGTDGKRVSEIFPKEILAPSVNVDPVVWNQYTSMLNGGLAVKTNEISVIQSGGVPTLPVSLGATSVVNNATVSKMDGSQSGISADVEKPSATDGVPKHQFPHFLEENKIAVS
Setting: 8-mer, flanks averaged, mean of replicates
AGTAATAC: 0.21
AATCGTCC: -0.00181
CGGAAATA: 0.236
TTATAGAA: 0.334
AGAGACGC: -0.198
ATAGGAAG: 0.148
CATATGCA: 0.214
AGACCCTA: -0.127
TATCTAGA: 0.151
TCGCTTCA: 0.0325
TTTCCAAA: 0.271
CGAGGGAA: -0.121
GCTTACCC: -0.13
GATTAGCA: 0.102
AACAGAAT: 0.15
ATGCCGCC: -0.235
ACAGCAGT: -0.0614
ACTAATTG: 0.191
GCCATGGC: -0.188
AGGATTAG: 0.0643
CTAGATGC: -0.0201
CAAACTAC: 0.0394

Series 4 — technique: RNA Bind-n-Seq; form: RNA; sample: in vitro; tested at: 365 nM; relative to: no-protein control; reading: higher = stronger binding; measurement: RBNS enrichment (R)
Target: RNA binding protein fox-1 homolog 2, RRM domain, GST-SBP tag (RBFOX2, Homo sapiens, UniProt O43251-10, residues 100-194)
Setting: natural RNA segment, single round, ends assumed
Constant ends, left off below: GGGAGUUCUACAGUCCGACGAUC … UGGAAUUCUCGGGUGCCAA
Construct (chain): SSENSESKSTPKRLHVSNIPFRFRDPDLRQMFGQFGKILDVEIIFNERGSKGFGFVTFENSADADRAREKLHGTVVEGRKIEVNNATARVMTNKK
UGUUAGUGGUAGCGUGGCUCACUCCACUUGGAGGUGGCGGCCGUCUGACCGUGUGUUACUGCUUUGCCGACGGGGCCUCCCGGCCCUGAUGCGUGUACACUCUGCGGGCU: 0.609
CAGCAGCCCUCAUGGCCCCUUUCCUGUACCAAGCACCCAGCUCUCCUCUUGUUCUGAAAGGGAUUUCACAUCUUCAGCGUAGCUUCAGUACAUCAUCGGAGGAGUCUGCU: 0.414
UCCACUUAUAACCAUUGUAUGCUCCUUCUAGUGUUAUCAUGCACAAGAAAAGUGCCAGUUUUACCCAUGCCAUAUAAUUCAGCUCUUUUGAGUUAUGUGGGGCCAGCAGA: 0.93
GUGGGGGUCCUGGUGCAGGCAGUGAACAGGCUUCUAAUGUGGGGUUCAGUAGUGCCAGCAAGUGGGGGAAACUUUCAGUAUUGCGCUAGGUCAACACUUCCUGCUGCAUU: 0.496
CACAGAACUUGAAUACAUGAGGGAACCAGAGUUCAAAGUCCUAUGCAACCUUAGGAGGGGGUUAGAGAGUCUGUUUUGAUUGAUGUUUUCUGAGGCCCUAGAGGAGUUUG: 2.75
UCCCAGUGACACCACCCCCUGCCUCUGGUUACUAUAAGAUGAGCCUUUAAGAUUCUUUCUAGACUUAAAUUUUGUGCCAUGGCCCACUGGAUGUAGAUAUUCUACAAGGA: 0.236
UAUAUAGGGGCACCCCAGACGCUGCAGUGACUUCAGCUAUCAACAAACUGUUAACCAUGUACAAUAUUGGAAAUAGGCUGAUUUUGAUGUAUUGCCUAUUCUUCAAGUAC: 0.678
AAGCUUUGAGUUAAAGGAUUUGACGACCACAAAAAACCAAAACCAAAACCAAAAACAAAAACCCAGUGGAAGAUCUCAGACAAAAAUCCAACUGGACGGGCUACUCACAA: 0.535
CUGAAAACUAUCAUUAGCCAGCCUUUCUUACUGACAAUAAAUUAUUAAUAAAAUACUUUAGCUUUAAUGCCUGGUUUUCUUCUGCAUUUAUAUUGCUGUUUAUGAUCUAC: 0.531
GUACGUCCUGCAUGCACUAACGGUGCAGAACAUGGCAUGGUGACUAGAAAGUAAAACUCCUUUUGAAGUGUCCCAAGGACUGGGUCAGUUAGAACCUGUCUGCCACUAUC: 0.429
UAACCAUUCCUUCCUCCAUCAGCCCCCAGCUUUUUUUCCUGGUAUCUGAGGUCCCAGGAGGAGGCUCAGGAUUCCCUGGUGGGUCUGGAUGUCCCUUGGGUCAGAGGUCA: 0.282
GGCCGGGAAAAGAGACAGGCAGCUCCUCAGCCUGAGAACGCCGCCGAUGCGACCAAGUGUCAGGCUCUAUGUGCCAUGCUUCAGAGUGCCCACCUUGAGAGAAGCCACCU: 0.392

Series 5 — technique: aptamer microarray, sandwich; form: DNA with 2'F-ANA; sample: in vitro; tested at: 200 nM; added: Cy3 exosite-II aptamer, 400 nM; reading: higher = stronger binding; measurement: mean fluorescence intensity; oligonucleotide: GGTTGGTGTGGTTGG
Target: Prothrombin, mature alpha-thrombin (F2, Homo sapiens, UniProt P00734)
Setting: whole 15-mer aptamer, many near background
2'F-ANA at 1 2 4 5 6 7 9 10 13 15: 49.3 a.u.
2'F-ANA at 3 4 5 6 7 9 10 12: 85.9 a.u.
2'F-ANA at 1 2 4 6 7 8 9 10 14: 52.3 a.u.
2'F-ANA at 1 3 6 7 9 12 13: 348 a.u.
2'F-ANA at 2 4 5 7 8 9 10 12 13 14: 66.1 a.u.
2'F-ANA at 1 2 4 5 9 13 14 15: 46.8 a.u.
2'F-ANA at 3 6 7 13: 913 a.u.
2'F-ANA at 1 2 3 6 7 9 10 13 14: 53.2 a.u.
2'F-ANA at 2 3 4 5 7 8 12 14: 274 a.u.
2'F-ANA at 3 5 6 8 9 10 11 13 14: 54.2 a.u.
2'F-ANA at 4 7 9 13 14 15: 88 a.u.
2'F-ANA at 2 5 6 8 9 10: 47.5 a.u.
2'F-ANA at 2 3 5 7: 118 a.u.
2'F-ANA at 3 5 6 10 11 12 13 14: 58.7 a.u.

Series 6 — technique: protein binding microarray; form: double-stranded DNA, one strand shown; sample: in vitro; tested at: not given; relative to: not given; reading: higher = stronger binding; measurement: E-score
Target: Histone acetyltransferase KAT6A, winged helix 2, GST fusion (KAT6A, Homo sapiens, UniProt Q92794, residues 85-181)
Setting: 8-mer, flanks averaged, mean of 2 arrays, mostly near background
Residues (chain): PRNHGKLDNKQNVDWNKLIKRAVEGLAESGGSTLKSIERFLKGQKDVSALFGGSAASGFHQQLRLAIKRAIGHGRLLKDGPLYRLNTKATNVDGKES
GCCCTCCC: 0.134
AAAAGTGT: -0.149
CACCGATG: -0.0701
ATCATTAA: 0.123
CAGAGGTA: 0.0153
GCTTTCGA: 0.0154
AGTTACAT: -0.165
GTGTGCTA: 0.0359
CAGTGACA: 0.0179
TACCCCAA: -0.132
GTCAATCA: -0.229
CACGGGCC: 0.0561
TCATCCGA: 0.0944

Repeated from above (series 6):
AAAAGTGT: -0.149
CACCGATG: -0.0701
ATCATTAA: 0.123
CAGAGGTA: 0.0153
GCTTTCGA: 0.0154
AGTTACAT: -0.165
GTGTGCTA: 0.0359
